Measurements of several laboratories.
Each numbered part is a random draw from the data of one study; scales do not carry over between parts. Positions count from the first letter of the parent shown.

Sample 1 — technique: RNA Bind-n-Seq; molecule type: RNA; medium: in vitro; concentration: not given; setting: RNA with constant flanks, ends assumed; baseline: input RNA pool; direction: higher = stronger binding; endpoint: bound/input enrichment
Target: RING finger protein unkempt homolog, zinc fingers 1-6, GST-SBP tag (UNK, Homo sapiens, UniProt Q9C0B0, residues 30-357)
Chain of UniProt Q9C0B0 (30-357, looked up): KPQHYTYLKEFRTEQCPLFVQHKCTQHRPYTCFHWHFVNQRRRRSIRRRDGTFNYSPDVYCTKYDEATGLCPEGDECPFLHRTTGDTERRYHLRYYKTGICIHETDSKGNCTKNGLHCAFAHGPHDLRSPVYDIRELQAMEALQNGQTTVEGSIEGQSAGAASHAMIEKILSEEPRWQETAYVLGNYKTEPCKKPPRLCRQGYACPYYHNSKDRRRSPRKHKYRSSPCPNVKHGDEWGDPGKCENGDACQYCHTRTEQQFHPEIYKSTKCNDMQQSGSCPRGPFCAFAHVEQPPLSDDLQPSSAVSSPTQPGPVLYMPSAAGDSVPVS
Oligonucleotide = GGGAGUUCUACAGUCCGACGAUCUUUAUACAAGGAGAAGCACUGGAUCCAAAGCAUGUCUGCAACCCAGCCAUUUUCAGGCUAACCGCUCGUCAGCUUGCUAAAAUCCAUGCUAUUCAUGCACACAAUGGCUGGAUCCCCAAACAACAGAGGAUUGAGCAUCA; value = 0.131 ratio
Oligonucleotide = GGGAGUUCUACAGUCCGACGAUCCAGGGCCAAAACUGGAACCAAGGAUUUAAUAACUAUUAUGAUCAAGGAUAUGGAAAUUACAACCGUGCCUAUGGUGGUGAUCAAAACUAUAGUGGCUAUGGCGGAUAUGAUUAUACUGGGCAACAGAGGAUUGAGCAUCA; value = 0.43 ratio
Oligonucleotide = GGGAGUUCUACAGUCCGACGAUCUCUUUUACCUCAUACUCACCUUAUGUAACAGAACUUAUAAUGGAAUCCAAUGUAGAGCUCACCGCAAAAAAUGACUUGCGCUUUAUAGAUGCUGUCUAUAAGCUUCUUCGUGAUCAAUUUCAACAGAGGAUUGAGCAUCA; value = 0.18 ratio
Oligonucleotide = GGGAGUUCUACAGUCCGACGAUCGAGUCGAGCAAACUUGAAACAAUUCGUUAUCUUGCAGCCUCAGUGUUCACUUGCUUGGCGACCGCAUUGGGGUUUUAUAGGUUCUGGAAGGAGAACUGACGAUGAUGCUGCCGCUGCUGCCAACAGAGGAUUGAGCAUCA; value = 0.212 ratio
Oligonucleotide = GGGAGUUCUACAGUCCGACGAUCGUACUUGCUGUAGGAUACAAGCUGUCUUUGCACUAGCUCUAAAGAAGAAUUUCUUCUGGUUUCCGAGAACUGAUUUUGUUUUAGCAUUAAACUGUUCAAGUUUUUGUACGUAGAUAUCUACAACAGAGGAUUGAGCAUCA; value = 0.666 ratio
Oligonucleotide = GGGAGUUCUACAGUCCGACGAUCAAUUGUGGCGAAUCAGAAGGAUUGUCAUGGCAUGGUAGAAUGUAUAUUGCUUGUCUCUCUACCGAAUAAUUUAAAAAUGACCACACCGAACAAGACACCUCCUGGUGCUGAUCCUAAGCACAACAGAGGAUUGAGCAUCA; value = 0.163 ratio
Oligonucleotide = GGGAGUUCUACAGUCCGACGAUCCGCUGCCGCGUGGGUCAGUGGGUACGCAUGGAGAACGUGACAGUGCUGGGUGAGGACGUCACCGUUAAUGAUGAGCUCUACCUCAACGGAGCCAGCGUGCUGCCCCACAAGUCUAUUGGCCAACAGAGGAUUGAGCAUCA; value = 0.209 ratio
Oligonucleotide = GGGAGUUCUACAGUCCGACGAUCCGUUCUCUGCCACCUCCUUCCCCUGCCCACUUGGCUGCUUUAAGUGUUGCAGUCAUUGAAUCCGCAAAAGAACAUGGAAUAACAGAUGAUGACCUCAGAGUCCGUCAGGAAAUUGUGGAGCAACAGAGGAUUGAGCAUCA; value = 0.177 ratio
Oligonucleotide = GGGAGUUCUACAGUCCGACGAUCAAAAGUGAGGAUUUGGGGAAAUCAUCAAGAUCGAAAACAGAGAGAGAUGAUAGAUAUUGCCGCUACUCAAAACUUGAACGAGAUACUCGGUAUGUAUCUUCCCGAUGUCGGUCCGAAAGACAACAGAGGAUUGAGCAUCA; value = 0.168 ratio
Oligonucleotide = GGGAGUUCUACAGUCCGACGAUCCAGAGCCCUCCAUAUAUGGGUGCCACAUCUCCACCCAAAGACAAGAAACGCCCAACACCUUCCGAGAUUGGUUACUCUUCUUCUCACCUUCGGGCAGACCCCACAGUCCAGCUGGCUCCUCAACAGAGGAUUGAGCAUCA; value = 0.312 ratio
Oligonucleotide = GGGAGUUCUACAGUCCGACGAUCAAUGUUCAUAUUUUGAGUAAAGGAAGCUAAAACCAUGUUUGCUUUCUGGUACUACAUGCAUCCGCGAAAGGUUAAGUAAGUUUUGUUCUCCACUGAAGUAAUACUUAACAUCUCAGAAAACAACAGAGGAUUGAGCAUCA; value = 0.177 ratio

Sample 2 — technique: DHFR PCA, deep sequencing; medium: yeast; with: (+)-ABA 200 µM; baseline: wild-type fitted maximum; direction: higher = stronger binding; endpoint: relative binding score
Target: ABI1, truncated, D143A, DHFR fusion (Arabidopsis thaliana)
Setting: methotrexate growth selection, single substitutions
Parent: PYL1, truncated, DHFR fusion (Arabidopsis thaliana); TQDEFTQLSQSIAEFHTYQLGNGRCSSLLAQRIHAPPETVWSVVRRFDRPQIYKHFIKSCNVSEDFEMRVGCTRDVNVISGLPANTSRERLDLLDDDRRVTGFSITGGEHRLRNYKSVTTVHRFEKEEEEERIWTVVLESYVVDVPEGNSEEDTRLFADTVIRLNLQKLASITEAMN; partner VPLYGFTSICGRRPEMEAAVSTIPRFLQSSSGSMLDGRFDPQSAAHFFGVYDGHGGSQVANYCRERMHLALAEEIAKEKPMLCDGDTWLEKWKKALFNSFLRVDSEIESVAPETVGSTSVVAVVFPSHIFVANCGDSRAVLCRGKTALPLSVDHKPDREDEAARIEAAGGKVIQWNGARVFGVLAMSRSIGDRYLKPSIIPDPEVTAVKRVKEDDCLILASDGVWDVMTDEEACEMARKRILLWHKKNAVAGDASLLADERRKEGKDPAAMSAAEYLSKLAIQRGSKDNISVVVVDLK
Variant = R90F; value = 41.5%
Variant = V161D; value = -3.07%
Variant = A35H; value = 0.57%
Variant = V143E; value = -0.477%
Variant = W41T; value = -1.2%
Variant = D153H; value = 77%
Variant = K58G; value = 86.3%
Variant = V40M; value = -3.4%
Variant = R163L; value = 57.9%
Variant = D159W; value = 1.94%
Variant = L20T; value = 102%
Variant = P36H; value = 98.5%
Variant = R123D; value = 94.8%
Variant = R90G; value = 15.5%
Variant = G23C; value = 83.1%
Variant = L29N; value = 95.9%
Variant = V43M; value = 93.6%
Variant = R163Q; value = 95%
Variant = E89L; value = -5.7%
Variant = F56T; value = 29.5%
Variant = A84Y; value = 64.7%

Sample 3 — technique: protein binding microarray; molecule type: double-stranded DNA, one strand shown; medium: in vitro; concentration: not given; baseline: not given; direction: higher = stronger binding; endpoint: E-score
Target: Histone acetyltransferase KAT6A, both winged helices, GST fusion (KAT6A, Homo sapiens, UniProt Q92794, residues 1-181)
Setting: 8-mer, flanks averaged, mean of 2 arrays, mostly near background
Residues (chain): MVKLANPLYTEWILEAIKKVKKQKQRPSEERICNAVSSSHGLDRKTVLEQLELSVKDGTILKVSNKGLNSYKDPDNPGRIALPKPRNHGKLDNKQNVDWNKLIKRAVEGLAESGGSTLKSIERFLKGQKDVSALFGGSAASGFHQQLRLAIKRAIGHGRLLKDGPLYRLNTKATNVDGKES
Oligonucleotide = CGACATGA; value = 0.127
Oligonucleotide = ACCTAAGA; value = -0.199
Oligonucleotide = ATCGAATG; value = -0.114
Oligonucleotide = CAAGGACC; value = -0.111
Oligonucleotide = GCTATAGC; value = 0.137
Oligonucleotide = GCGTCCCA; value = -0.00317
Oligonucleotide = CTGCTTTC; value = -0.0361
Oligonucleotide = CGACCAAG; value = -0.0199
Oligonucleotide = TATCGCCA; value = 0.0336
Oligonucleotide = TAGTCCCA; value = -0.246
Oligonucleotide = ATAGCCTG; value = -0.182
Oligonucleotide = CGCACACG; value = 0.234
Oligonucleotide = ACGGAGCT; value = 0.115
Oligonucleotide = CCGCTACG; value = 0.307
Oligonucleotide = CTGCGCAG; value = 0.131
Oligonucleotide = GTATTAAC; value = 0.0729
Oligonucleotide = GGACGAGA; value = 0.018
Oligonucleotide = CCCCTTAA; value = -0.252

Sample 4 — read-out: peptide binding; molecule type: peptide; medium: yeast competitive growth; with: B1-Cln2 chimera; direction: direction not given; endpoint: enrichment score
Molecule = SMTDFYHSKRRLIFSK; value = -0.959
Molecule = GLPDFVFQQQPVESEA; value = 1.24
Molecule = KPHVSDEEEEEPPFYH; value = 1.33
Molecule = KRNLLNEFDRII; value = 1.31
Molecule = FQDSGYNELKSCSFDN; value = 0.37
Molecule = PKNAKRNLSSEFAN; value = -0.347
Molecule = PARRRLRLSVDEVSSP; value = 0.105
Molecule = IVLICAKRSLCAAFSV; value = -1.11
Molecule = PKRAKRKLYTSEISSP; value = -0.504
Molecule = VLVRTSACRSLFGPVD; value = -1.1
Molecule = SSEVARHLLFQSHM; value = -1.04
Molecule = PAKRRLELGE; value = 0.158
Molecule = SAVPLILPQAPSGPSY; value = 1.94
Molecule = KPKPVKPVTFSTGIKM; value = 1.16
Molecule = DTERAHSTLDEDLERW; value = 0.0401
Molecule = TARRIFQEPTEPKTKA; value = -0.769
Molecule = DGCSPIKNWSPMRL; value = -0.203
